Measured values collected from several papers.
Lines come from different studies, so protocols differ. ± marks the error that the study gave.
Cell line: RAW264.7

Compound	assay	system	setting	how to read	quantity	value
CC[C@H](C)[C@H](NC(=O)[C@H](CCCCN)NC(=O)[C@H](CCCCN)NC(=O)[C@H](Cc1ccccc1)NC(=O)[C@H](CC(C)C)NC(=O)[C@@H](CCCCN)NC(=O)[C@H](Cc1c[nH]c2ccccc12)NC(=O)[C@H](CCCCN)NC(C)=O)C(=O)NCC(=O)N[C@@H](C)C(=O)N[C@H](C(=O)N[C@@H](CC(C)C)C(=O)N[C@@H](CCCCN)C(=O)N[C@H](CCCCN)C(=O)N[C@@H](CC(C)C)C(N)=O)C(C)C	cell viability, MTT	–	1 h, 37 °C	–	LD50	84 ± 14 µM
COC1=C[C@@H]2[C@@H]3Cc4c(Br)cc(OC)c(OC(=O)c5ccnnc5)c4[C@]2(CCN3C)CC1=O	cytotoxicity, MTT	–	24 h	–	IC50	> 100 µM
CC1CCC(C(C)C)C(OC(=O)CSc2nnc(Cn3cnc4c3c(=O)n(C)c(=O)n4C)o2)C1 (centres unmarked)	cell growth or viability, MTT	–	50 µM, 24 h	–	viability	90%
COC1=C[C@@H]2[C@@H]3Cc4ccc(OC)c(OC(=O)CN)c4[C@]2(CCN3C)CC1=O	cytotoxicity, MTT	–	24 h	–	IC50	> 100 µM
C=CCc1ccc(OC(=O)COC(=O)Cn2cnc3c2c(=O)n(C)c(=O)n3C)c(OC)c1	cell growth or viability, MTT	–	50 µM, 24 h	–	viability	92%
COC1=C[C@@H]2[C@@H]3Cc4ccc(OC)c(OC(=O)[C@@H]5CCCN5C(=O)OC(C)(C)C)c4[C@]2(CCN3C)CC1=O	cytotoxicity, MTT	–	24 h	–	IC50	> 100 µM
O=C(/C=C/CI)O[C@@H]1COC(=O)C1	cytotoxicity	–	–	–	IC50	23 µM
CC/C=C\C/C=C\C/C=C\CCCCCCCC(=O)OC[C@H](CO[C@@H]1O[C@H](CO)[C@H](O)[C@H](O)[C@H]1O)OC(=O)CCCCCCC/C=C\C/C=C\C/C=C\CC	cell viability, MTT	serum-free medium	20 h	–	LD50	> 20 µM
CC(C)[C@@H]1NC(=O)CNC(=O)[C@H](CC(N)=O)NC(=O)[C@H](CCCNC(=N)N)NC(=O)[C@H](Cc2ccc(O)cc2)NC(=O)[C@H](C(C)C)NC(=O)[C@@H](NC(=O)[C@@H](NC(=O)[C@H](CC(N)=O)NC(=O)[C@H](Cc2c[nH]c3ccccc23)NC(=O)[C@H](C)NC(=O)[C@H](Cc2ccccc2)NC(=O)CNC(=O)[C@H](CCCCN)NC(=O)[C@H](Cc2ccccc2)NC(=O)[C@H](Cc2ccccc2)NC(=O)[C@H](CCCCN)NC(=O)OCC2c3ccccc3-c3ccccc32)C(C)C)CSSC[C@@H](C(=O)N[C@@H](Cc2c[nH]cn2)C(=O)N[C@@H](CCCNC(=N)N)C(=O)N[C@@H](CCCNC(=N)N)C(=O)N[C@@H](C)C(=O)N[C@@H](CC(N)=O)C(N)=O)NC(=O)[C@H](C(C)C)NC(=O)[C@H](CCCNC(=N)N)NC1=O	CCK-8	–	up to 128 µM, 12 h	–	viability	> 90%
Cc1ccc(C(C)C)c(OC(=O)Cn2cnc3c2c(=O)n(C)c(=O)n3C)c1	cell growth or viability, MTT	–	50 µM, 24 h	–	viability	94%
COc1ccc(-n2cc(C(=O)N3C[C@]4(OC(=O)c5ccccc5NC(C)=O)CC[C@H](OC)[C@@]56[C@@H]4C[C@@H]([C@@H]35)[C@@]3(O)C[C@H](OC)[C@H]4C[C@@H]6[C@]3(O)[C@H]4OC)nn2)cc1	MTT	–	7.5 to 120 µM	–	cytotoxicity	not toxic
COC1=C[C@@H]2[C@@H]3Cc4c(Br)cc(OC)c(OC(=O)c5nc(C)c(C)nc5C)c4[C@]2(CCN3C)CC1=O	cytotoxicity, MTT	–	24 h	–	IC50	21.9 ± 3.51 µM
COC1CC(=O)N(C)C=CCCCC(=O)N(C)C(C(C)C)C(=O)N(C)C(CC(C)C)C(=O)OC(C(C)C)CC(C)C1 (centres unmarked)	MTT	–	up to 100 µM, 24 h	–	cytotoxicity	not toxic
CCCCCCCCC/C=C\CCCc1cc(=O)c2ccccc2n1C	–	–	48 h, 50% growth inhibition	–	GIC50	24 ± 9 mg/L
C=CCc1ccc(OC(=O)CSc2nnc(Cn3cnc4c3c(=O)n(C)c(=O)n4C)o2)c(OC)c1	cell growth or viability, MTT	–	50 µM, 24 h	–	viability	98%
O=C(/C=C/CF)O[C@@H]1COC(=O)C1	cytotoxicity	–	–	–	IC50	128 µM
COC1=C[C@@H]2[C@@H]3Cc4ccc(OC)c(OC(=O)c5ccnnc5)c4[C@]2(CCN3C)CC1=O	cytotoxicity, MTT	–	24 h	–	IC50	> 100 µM
CC[C@H](C)[C@H](NC(=O)[C@@H](NC(=O)[C@H](CCCCN)NC(=O)[C@H](CC(=O)O)NC(=O)[C@H](CCCCN)NC(=O)[C@H](Cc1ccccc1)NC(=O)[C@H](Cc1ccccc1)NC(=O)[C@H](CO)NC(=O)[C@H](CCCCN)NC(=O)[C@H](CCSC)NC(=O)[C@H](CCCCN)NC(=O)[C@H](CCCCN)NC(=O)[C@H](Cc1c[nH]c2ccccc12)NC(=O)[C@@H](N)Cc1ccccc1)C(C)C)C(=O)N1CCC[C@H]1C(=O)N[C@@H](CCCCN)C(=O)N[C@H](C(=O)N[C@@H](CCC(N)=O)C(=O)N[C@@H](CCC(N)=O)C(=O)N[C@@H](C)C(=O)N[C@@H](Cc1ccc(O)cc1)C(=O)N[C@@H](CO)C(=O)N[C@@H](CC(C)C)C(=O)N[C@@H](Cc1ccc(O)cc1)C(=O)N[C@@H](CC(N)=O)C(=O)N[C@@H](CCCCN)C(=O)N[C@@H](CC(C)C)C(=O)N[C@@H](CCC(N)=O)C(=O)N[C@@H](Cc1c[nH]cn1)C(=O)N[C@@H](CCCCN)C(=O)N[C@@H](CC(C)C)C(N)=O)C(C)C	WST-8	–	up to 25 µg/mL, 24 h	relative to: water	viability	no effect
COC1=C[C@@H]2[C@@H]3Cc4c(Br)cc(OC)c(OC(=O)c5cnccn5)c4[C@]2(CCN3C)CC1=O	cytotoxicity, MTT	–	24 h	–	IC50	52.7 ± 3.19 µM
CC/C=C\C/C=C\C/C=C\CCCCCC(=O)OC[C@@H](O)CO[C@@H]1O[C@H](CO)[C@H](O)[C@H](O)[C@H]1O	cell viability, MTT	serum-free medium	20 h	–	LD50	> 100 µM
Cn1c(=O)c2c(ncn2CC(=O)N/N=C/C=Cc2ccccc2)n(C)c1=O	cell growth or viability, MTT	–	50 µM, 24 h	–	viability	94.7%
CNCC(=O)Oc1c(OC)ccc2c1[C@@]13CCN(C)[C@@H](C2)[C@H]1C=C(OC)C(=O)C3	cytotoxicity, MTT	–	24 h	–	IC50	> 100 µM
Cc1ccc(C(C)C)c(OC(=O)COC(=O)Cn2cnc3c2c(=O)n(C)c(=O)n3C)c1	cell growth or viability, MTT	–	50 µM, 24 h	–	viability	89%
COC1=C[C@@H]2[C@@H]3Cc4ccc(OC)c(OC(=O)c5nc(C)c(C)nc5C)c4[C@]2(CCN3C)CC1=O	cytotoxicity, MTT	–	24 h	–	IC50	17.9 ± 2.24 µM
CC[C@H](C)[C@H](NC(=O)[C@H](CCCCN)NC(=O)[C@H](CCCCN)NC(=O)[C@H](Cc1ccccc1)NC(=O)[C@H](CC(C)C)NC(=O)[C@H](CCCCN)NC(=O)[C@H](Cc1c[nH]c2ccccc12)NC(=O)[C@H](CCCCN)NC(C)=O)C(=O)NCC(=O)N[C@@H](C)C(=O)N[C@H](C(=O)N[C@@H](CC(C)C)C(=O)N[C@@H](CCCCN)C(=O)N[C@H](C(=O)N[C@@H](CC(C)C)C(N)=O)C(C)C)C(C)C	cell viability, MTT	–	1 h, 37 °C	–	LD50	3.8 µM
CC(C)[C@@H]1CC[C@@H](C)C[C@H]1OC(=O)COC(=O)Cn1cnc2c1c(=O)n(C)c(=O)n2C	cell growth or viability, MTT	–	50 µM, 24 h	–	viability	88%

Repeated from above:
Compound	assay	system	setting	how to read	quantity	value
COC1=C[C@@H]2[C@@H]3Cc4c(Br)cc(OC)c(OC(=O)c5cnccn5)c4[C@]2(CCN3C)CC1=O	cytotoxicity, MTT	–	24 h	–	IC50	52.7 ± 3.19 µM
CC/C=C\C/C=C\C/C=C\CCCCCC(=O)OC[C@@H](O)CO[C@@H]1O[C@H](CO)[C@H](O)[C@H](O)[C@H]1O	cell viability, MTT	serum-free medium	20 h	–	LD50	> 100 µM
Cn1c(=O)c2c(ncn2CC(=O)N/N=C/C=Cc2ccccc2)n(C)c1=O	cell growth or viability, MTT	–	50 µM, 24 h	–	viability	94.7%
CNCC(=O)Oc1c(OC)ccc2c1[C@@]13CCN(C)[C@@H](C2)[C@H]1C=C(OC)C(=O)C3	cytotoxicity, MTT	–	24 h	–	IC50	> 100 µM
